Assay results collected from several papers.
Each line is one published result; not all experiments were run side by side. “And” joins repeats or separate records; there may be more than shown. pIC50, pKd: −log10 of the molar value.
BRD4 BD2: Bromodomain-containing protein 4, BD2 (BRD4, Homo sapiens, UniProt O60885)
BRD4 short isoform: Bromodomain-containing protein 4, short isoform (BRD4, Homo sapiens, UniProt O60885)
BRD4 BD1: Bromodomain-containing protein 4, BD1 (BRD4, Homo sapiens, UniProt O60885)

CC(=O)N1c2ccc(-c3ccc(CNC(=O)c4cn5cc(-c6cnc(N)nc6)nc(N6CCOCC6)c5n4)cc3)cc2CC[C@@H]1C  pKd (BRD4 BD2; binding, competition with immobilised ligand): 9.05
Cc1ncsc1-c1ccc(CNC(=O)[C@@H]2C[C@@H](O)CN2C(=O)[C@@H](NC(=O)COCC(C)(COCCOCCOCCNC(=O)C[C@@H]2N=C(c3ccc(Cl)cc3)c3c(sc(C)c3C)-n3c(C)nnc32)COCCOCCOCCNC(=O)C[C@@H]2N=C(c3ccc(Cl)cc3)c3c(sc(C)c3C)-n3c(C)nnc32)C(C)(C)C)cc1  pKd (BRD4 short isoform; BROMOscan): 10.07 and 10.10
Cc1cc2c(cc1N)n(C)c(=O)n2C  pIC50 (BRD4 BD1): < 4.48
COc1cc(-c2cc(C(C)=O)n3ccccc23)cc(OC)c1Cn1ccnc1  pIC50 (BRD4 BD1; inhibitor): 5.66
Cc1nc(S(=O)(=O)Nc2cc3c(cc2Oc2cccc(COCC(C)C)c2)n(C)c(=O)n3C)cn1C  pIC50 (BRD4 BD2): < 4.70
Cc1ncsc1-c1ccc2c(c1)OCCOCCOC[C@@H](NC(=O)C[C@@H]1N=C(c3ccc(Cl)cc3)c3c(sc(C)c3C)-n3c(C)nnc31)COCCOCCOCC(=O)N[C@@H](C(C)(C)C)C(=O)N1C[C@H](O)C[C@H]1C(=O)NC2  pKd (BRD4 BD2; binding, ITC): 6.67
O=C1CCCN1c1cccc(NS(=O)(=O)c2cccc(F)c2)c1  pIC50 (BRD4 BD1; binding, differential scanning fluorimetry): 4.62
Cn1cc(-c2cc(N3CCCCS3(=O)=O)ccc2N[C@H]2CC[C@@](C)(O)CC2)c2cc[nH]c2c1=O  pIC50 (BRD4 BD2; cell-free assay, TR-FRET): 8.65
CCOc1ccc(C(C)=O)cc1NC(=O)c1cccc(C(=O)O)c1  pKd (BRD4 BD1; binding, competition with immobilised ligand): < 4.30
O=C1CCCN1c1cccc(NS(=O)(=O)c2cccc(Br)c2)c1  pIC50 (BRD4 BD1; binding, differential scanning fluorimetry): 4.38
COc1cc(OC)c2c(=O)cc(-c3cc(C)c(OCCCN4CCN(C)CC4)c(C)c3)oc2c1  pIC50 (BRD4 BD2; cell-free assay, TR-FRET): 7.06
COc1ccc(Br)cc1S(=O)(=O)Nc1cccc(N2CCCC2=O)c1  pIC50 (BRD4 BD1; binding, differential scanning fluorimetry): 4.92
Cc1sc2c(c1C)C(c1ccc(Cl)cc1)=N[C@@H](CC(=O)NCCN(C)CCCCNC(=O)CCCCOc1cccc3c1C(=O)N([C@H]1CCC(=O)NC1=O)C3=O)c1nnc(C)n1-2  DC50 (BRD4 short isoform; degrader, Western blot, refers to: BRD4 short isoform; MV4-11): 20 nM

A few entries again:
O=C1CCCN1c1cccc(NS(=O)(=O)c2cccc(F)c2)c1  pIC50 (BRD4 BD1; binding, differential scanning fluorimetry): 4.62
Cc1ncsc1-c1ccc(CNC(=O)[C@@H]2C[C@@H](O)CN2C(=O)[C@@H](NC(=O)COCC(C)(COCCOCCOCCNC(=O)C[C@@H]2N=C(c3ccc(Cl)cc3)c3c(sc(C)c3C)-n3c(C)nnc32)COCCOCCOCCNC(=O)C[C@@H]2N=C(c3ccc(Cl)cc3)c3c(sc(C)c3C)-n3c(C)nnc32)C(C)(C)C)cc1  pKd (BRD4 short isoform; BROMOscan): 10.07 and 10.10
